Assay results from different studies.
Lines come from different studies, so protocols differ. Numbers after ± are the reported error.

COc1cc2c(C=C3C(=O)Nc4ccccc43)c[nH]c2cc1C — TGI (breast cancer subpanel of NCI-60; 48 h): 6.76 µM
Cc1nc(C)c(C=[N+]([O-])C(C)(C)C)nc1C — apoptotic cells (rat cerebellar granule neurons; TUNEL staining; 300 µM, 2 h, together with: 150 µM MPP+ for 24 h): 31.3 ± 3.18%
[64Cu+2].c1ccc(CNCc2ccc(CN3CCCN4CCNCCCN(CC4)CC3)cc2)nc1 — tissue uptake (CXCR4; NOD/SCID mouse, U87 xenografts, U87 tumour; 90 min): 3.92 ± 0.54 %ID/g
Cc1ccc(CN2C(=O)/C(=N\c3ccc(Cl)cc3Br)c3ccccc32)cc1 — apoptotic cells (B16 co-cultured with treated M2 macrophages; concentration not given): 44.2%
[64Cu+2].c1cnc(CNCc2ccc(CN3CCCN4CCNCCCN(CC4)CC3)cc2)nc1 — tissue uptake (CXCR4; NOD/SCID mouse, U87 and U87-stb-CXCR4 xenografts, blood; iv, 450 min, ex vivo): 1.02 ± 0.11 %ID/g
CC[C@@]12CCc3[nH]c4ccccc4c3CCN(C[C@H]3O[C@H]31)C2 — inhibition (BV-2; NO production; 3 µM, 1 h, 24 h stimulation, together with: LPS 800 ng/mL; baseline: LPS control): 39.6 ± 5.4%
CCCC(CCC)C(=O)[O][Pt]([NH2])([NH2])([Cl])([Cl])[O]C(=O)C(Cl)Cl — resistance factor (C13 and 2008; cytotoxicity, MTT; baseline: IC50 C13 over IC50 2008): 1.2
CC(C)CC(CC(C)C)NC(=O)[C@H](Cc1c[nH]cn1)NC(=O)CNC(=O)[C@@H](NC(=O)[C@H](C)NC(=O)[C@H](Cc1c[nH]c2ccccc12)NC(=O)[C@H](CCC(N)=O)NC(=O)[C@@H](Cc1ccccc1)NC(=O)COCC(=O)Nc1ccc(CNC(=O)CN2CCN(CC(=O)O)CCN(CC(=O)O)CCN(CC(=O)O)CC2)cc1)C(C)C [lutetium-177 labelled] — cell density (PC-3, docetaxel pretreated; SRB assay after 6 days; 50 MBq, 1 h, 37 °C; baseline: medium-treated): 81.2 ± 12.6%
CN(C)c1ccc(C(=O)N[C@@H](CSCCCC(=O)NO)C(=O)Nc2ccc(-c3ccccc3)cc2)cc1 — IC50 (Lucilia cuprina; larval weight gain; LS strain, larvae on impregnated cotton wool; 24 h): 380 µg
COc1cc(CNC(=O)C[C@H](C)CCC=C(C)C)ccc1OCc1cn(-c2ccccc2Cl)nn1 — growth percent (SK-MEL-2 melanoma cells; SRB; 10 µM, 48 h): 53.3%
CC(=O)N[C@H](C(=O)N[C@H](C(=O)N[C@@H](CCCNC(=N)N)C(=O)N1Cc2ccccc2C[C@H]1C(=O)N[C@@H](Cc1ccccc1)C(N)=O)C1CCCCC1)C(C)C — cytokine level (MBP-specific BC-3 T cells; Bio-Plex multiplex, refers to: Eotaxin; 200 µg/mL, 24 h, together with: MBP87-99 antigen): < 23.5 pg/mL
CCCCCCCCN(CCC(=O)Nc1ccccc1)C(=O)c1ccccn1 — phospho-H2AX level (HGPS fibroblasts; 2 µM, 10 days): decreased
CCCCC/C=C/C(=O)CCc1ccc(O)c(OC)c1 — IC50 (mouse mAb 1-F12; antibody binding, indirect competitive ELISA; together with: coating antigen 3-OVA): > 4 µg/mL
CCOC(=O)c1cc2cc(C(=O)N3CCN(CCOc4ccccc4)CC3)ccc2[nH]1 — lowest active concentration (HEK293 NRF2 luciferase reporter; NRF2 reporter gene, activator; 18 h; baseline: control): 1 µM
CC(=C(c1ccc(O)cc1)c1ccc(Cl)cc1)c1ccc(Cl)cc1 — GI50 (SF-539; cell growth or viability, SRB): 0.6 µM
COc1cc(CCC(C)=O)ccc1O — IC50 (mAb 5-3H1; antibody binding, indirect competitive ELISA; together with: coating antigen 5-OVA): > 4 µg/mL
O=C1c2c(O)cc3oc4cc(O)c(O)cc4c3c2OC1Cc1ccc(O)cc1 (stereo not drawn) — viability (L02; MTT; 10 µM, 2 h, together with: H2O2 100 µM; baseline: untreated): 90.1%
CC(C)(C)OC(=O)N[C@@H](CCCCCC(=O)NO)C(=O)NC1CCCC1 — IC50 (Lucilia cuprina; pupation; LS strain, larvae on impregnated cotton wool; 216 h): > 200 µg
COc1cc(CNC(=O)C[C@H](C)CCC=C(C)C)ccc1OCc1cn(-c2ccccc2F)nn1 — growth percent (RPMI-8226 leukaemia cells; SRB; 10 µM, 48 h): 81.8%
Cc1cc(N)c2ccccc2[n+]1CCCCCCCCCCCCCC[n+]1c(C)cc(N)c2ccccc21 — time to decreased viability (NB12 neuroblastoma tumour-initiating cells; trypan blue exclusion; concentration not given): ≤ 24 h
CC(C)=CCCC(C)=CCc1cc(-c2coc3cc(OC4OC(C(=O)O)C(O)C(O)C4O)ccc3c2=O)ccc1O (stereo not drawn) — substrate inhibition Ki (glucuronidation, substrate; dog liver microsomes): 51.4 ± 13.8 µM
CCNS(=O)(=O)c1ccc(COc2ccc3nc4ccc(=O)cc-4oc3c2)cc1 — cell migration (BT-549; 3D collagen I gel; 1 µM, 48 h): inhibited
COC1CN([C@H]2CC[C@H]([C@@]3(C)Oc4c(Cl)cc(C(=O)NCc5c(SC)cc(C)[nH]c5=O)c(C)c4O3)CC2)C1 — GI50 (HT-1376; cell growth or viability, ATP luminescence; 12 days): 0.01 µM
COC(=O)c1ccccc1-c1c2ccc(=O)cc-2oc2cc(OCCCCC[P+](c3ccc(C)cc3)(c3ccc(C)cc3)c3ccc(C)cc3)ccc12 — Pearson coefficient (HeLa cells; confocal microscopy; together with: MitoTracker Deep Red): 0.856 ± 0.021
CC(Cc1ccc(Cl)cc1)=C(c1ccc(Cl)cc1)c1ccc(OCCN(C)C)cc1 — GI50 (IGROV-1; cell growth or viability): 3.73 µM
CCCC[C@H](NC(=O)CNC(=O)CNC(=O)CN1CCN(CC(=O)O)CCN(CC(=O)O)CCN(CC(=O)O)CC1)C(=O)N[C@H]1CC(=O)NCCCC[C@@H](C(N)=O)NC(=O)[C@H](Cc2c[nH]c3ccccc23)NC(=O)[C@H](CCCNC(=N)N)NC(=O)[C@@H](Cc2ccccc2)NC(=O)[C@H](Cc2c[nH]cn2)NC1=O [lutetium-177 labelled] — tissue uptake (C57 mouse, female, heart; intravenous, 0.037 MBq, 0.5 h): 1.12 ± 0.22 %ID/g
CC/C=C\C/C=C\C/C=C\C/C=C\C/C=C\C/C=C\CCC(=O)Nc1ccn(C2OC(CO)C(O)C2(F)F)c(=O)n1 (stereo not drawn) — TGI (SF-539; NCI60 screen): 0.538 µM
COc1cc(/C=C/C(=O)O)ccc1O — inhibition (BV-2; NO release, inhibitor, Griess; 10 µM, LPS-stimulated): 75.6%
C[N+]1(CC(=O)OC2CCCCCCCCCCC2)CCCCC1 — PSA protein level (LNCaP expressing AR-V7; inhibitor, Western blot; 10 µM, 24 h): inhibited
C/C(=N\N=C1/NC(=O)CS1)c1ccccn1 — inhibition (Vero; cell growth or viability, SRB; 100 µg/mL, 48 h): 71.5%
CC(=O)[O-].O.O.[O-]c1ccc(Br)cc1C=NCCN1CCOCC1.[Zn+2] — inhibition zone diameter (Chromobacterium violaceum; 20 µL of 100 µM per disc): 15 mm
COc1cc(CNC(=O)C[C@H](C)CCC=C(C)C)ccc1OCc1cn(-c2cccc(Cl)c2)nn1 — growth percent (SF-539 CNS cancer cells; SRB; 10 µM, 48 h): 73.1%
CC(=O)OC[C@H]1O[C@@H](Sc2sc(C(=O)c3ccc(C)cc3)c(N)c2-c2nc3ccccc3s2)[C@H](OC(C)=O)[C@@H](OC(C)=O)[C@H]1OC(C)=O — growth (SF-539; SRB; 10 µM, 48 h; baseline: untreated): 91.3%
O=C1OCC2=C1C(c1cccc(Br)c1)C1=C(N2)C(=O)c2ccccc2C1=O (stereo not drawn) — necrotic cells (SK-LU-1 cells; annexin V/PI; 0.32 µM, 24 h): 4.82%
COc1ccc([C@@H]2CC(=O)c3c(O)cc(O[C@@H]4O[C@H](CO[C@@H]5O[C@@H](C)[C@H](O)[C@@H](O)[C@H]5O)[C@@H](O)[C@H](O)[C@H]4O)cc3O2)cc1O — cell count (MRC5; trypan blue exclusion; 100 µg/mL, 48 h): 13300 ± 498
COc1ccc(NC(=O)CCc2nc3cc(Cl)ccc3[nH]c2=O)cc1 — late apoptotic cells (MCF7; annexin V-FITC; concentration not given): 6.25%
COc1cc(CNC(=O)C[C@H](C)CCC=C(C)C)ccc1OCc1cn(-c2ccc(C#N)cc2)nn1 — growth percent (RPMI-8226 leukaemia cells; SRB; 10 µM, 48 h): 58.3%
COc1cc(O)c(-c2c(O)cc(OC)c3c2ccc2cc(O)ccc23)c2ccc3ccccc3c12 — cytokine release (BV-2; ELISA, refers to: IL-6; concentration not given, pretreatment, together with: LPS): decreased
O=Cc1c(O)ccc2ccccc12 — log2 fold change (HUVEC; RNA sequencing, refers to: ERFE; 75 µM, 24 h; baseline: DMSO): 4.67
CN1CCN(C(=O)N(CCCCCCC(=O)NO)c2ccc(-c3ccc4cnn(C)c4c3)cc2)CC1 — acetylation (MM1.S; immunoblot, refers to: tubulin; 30 to 1000 nM, 6 h): increased
COc1cc(CNC(=O)C[C@H](C)CCC=C(C)C)ccc1OCc1cn(-c2ccc([N+](=O)[O-])cc2)nn1 — growth percent (SK-MEL-2 melanoma cells; SRB; 10 µM, 48 h): 64.5%
O=[N+]([O-])[O-].[NH3+][Pt-2]1([NH3+])[O]C(C(F)(F)F)=CC(c2ccccc2)=[O+]1 (stereo not drawn) — mean growth (NCI-60 CNS cancer lines; SRB; 10 µM, 48 h; baseline: untreated): 64.5%
O=C(CCCCC1SCC2NC(=O)NC21)NCCCCC(CN1CCCC1CN1C(=O)C(=O)NCC1Cc1ccccc1)N1CC(Cc2ccc(O)cc2)N(CCc2ccccc2)C(=O)C1=O (stereo not drawn) — maximal viability inhibition (WM 266-4; CellTiter-Glo; 100 µM, 72 h): 37%
COc1cc(CNC(=O)C[C@H](C)CCC=C(C)C)ccc1OCc1cn(-c2cccc([N+](=O)[O-])c2)nn1 — growth percent (SF-539 CNS cancer cells; SRB; 10 µM, 48 h): 69.8%
N=C(N)NCCC[C@@H]1NC(=O)[C@H](CCCCNC(=O)CNC(=O)CNC(=O)CNC(=O)CC[C@H](NC(=O)CNC(=O)CNC(=O)CNC(=O)CN2CCN(CC(=O)O)CCN(CC(=O)O)CCN(CC(=O)O)CC2)C(=O)NCC(=O)NCC(=O)NCC(=O)NCCCC[C@@H]2NC(=O)[C@@H](Cc3ccccc3)NC(=O)[C@H](CC(=O)O)NC(=O)CNC(=O)[C@H](CCCNC(=N)N)NC2=O)NC(=O)[C@@H](Cc2ccccc2)NC(=O)[C@H](CC(=O)O)NC(=O)CNC1=O [indium-111 labelled] — tissue uptake (female athymic nu/nu mice, eyes; intravenous, 0.5 h): 1.2 ± 0.24 %ID/g
CCN(CC)CCNC(=S)Nc1ccc2nc(N3CCN(CC)CC3)cc(C)c2c1 — decrease in foci-positive cells (BCR-ABL1+ BRCA1-deficient 32Dcl3; refers to: GFP-RAD52 foci; 2.5 µM, together with: cisplatin; baseline: cisplatin alone): 2 to 2.5 fold
COc1cc(CNC(=O)C[C@H](C)CCC=C(C)C)ccc1OCc1cn(-c2ccc(Br)cc2)nn1 — growth percent (SK-MEL-2 melanoma cells; SRB; 10 µM, 48 h): 78%
O=C1NCC(Cc2ccccc2)N(CC2CCCN2CC(CC2CCCCC2)N2CC(Cc3ccc(O)cc3)N(CCc3ccccc3)C(=O)C2=O)C1=O (stereo not drawn) — spliced XBP1 share (WM 266-4; RT-PCR; 5 µM, 2 h): 36 ± 10%
COc1cc(CNC(=O)C[C@H](C)CCC=C(C)C)ccc1OCc1cn(-c2cccc(C(F)(F)F)c2)nn1 — growth percent (A498; SRB; 10 µM, 48 h): 91%
CC(=O)OC[C@H]1O[C@@H](Sc2sc(C(=O)c3ccc(Br)cc3)c(N)c2-c2nc3ccccc3s2)[C@H](OC(C)=O)[C@@H](OC(C)=O)[C@@H]1OC(C)=O — growth (IGROV-1; SRB; 10 µM, 48 h; baseline: untreated): 45.6%
O=C1CCN(Cc2ccccc2)CC1C(C[N+](=O)[O-])c1ccccc1 (stereo not drawn) — tail flick response (tail immersion test; BALB/c mice; ip, 25 mg/kg, 0.75 h): 26.4%

Repeated from above:
CCCCCCCCN(CCC(=O)Nc1ccccc1)C(=O)c1ccccn1 — phospho-H2AX level (HGPS fibroblasts; 2 µM, 10 days): decreased
CC(C)CC(CC(C)C)NC(=O)[C@H](Cc1c[nH]cn1)NC(=O)CNC(=O)[C@@H](NC(=O)[C@H](C)NC(=O)[C@H](Cc1c[nH]c2ccccc12)NC(=O)[C@H](CCC(N)=O)NC(=O)[C@@H](Cc1ccccc1)NC(=O)COCC(=O)Nc1ccc(CNC(=O)CN2CCN(CC(=O)O)CCN(CC(=O)O)CCN(CC(=O)O)CC2)cc1)C(C)C [lutetium-177 labelled] — cell density (PC-3, docetaxel pretreated; SRB assay after 6 days; 50 MBq, 1 h, 37 °C; baseline: medium-treated): 81.2 ± 12.6%
CC/C=C\C/C=C\C/C=C\C/C=C\C/C=C\C/C=C\CCC(=O)Nc1ccn(C2OC(CO)C(O)C2(F)F)c(=O)n1 (stereo not drawn) — TGI (SF-539; NCI60 screen): 0.538 µM
COc1cc(CCC(C)=O)ccc1O — IC50 (mAb 5-3H1; antibody binding, indirect competitive ELISA; together with: coating antigen 5-OVA): > 4 µg/mL
COc1cc(O)c(-c2c(O)cc(OC)c3c2ccc2cc(O)ccc23)c2ccc3ccccc3c12 — cytokine release (BV-2; ELISA, refers to: IL-6; concentration not given, pretreatment, together with: LPS): decreased
CC(=O)OC[C@H]1O[C@@H](Sc2sc(C(=O)c3ccc(Br)cc3)c(N)c2-c2nc3ccccc3s2)[C@H](OC(C)=O)[C@@H](OC(C)=O)[C@@H]1OC(C)=O — growth (IGROV-1; SRB; 10 µM, 48 h; baseline: untreated): 45.6%
